Experimental data gathered from unrelated publications.
A part holds a random share of what one study measured.

Block 1
Target: Interferon regulatory factor 5, full length, phosphomimetic (IRF5, Homo sapiens, UniProt Q13568-2, residues 1-514, S451D/S453D/S456D/S462D)
Technique: protein-binding microarray
Molecule type: double-stranded DNA, one strand shown
Medium: in vitro
Concentration: 940 nM top
Notes: 60-bp whole probe
With: salmon DNA 0.4 mg/ml
Relative to: random background probes
Reading: higher = stronger binding
Shared flanks, not repeated: GCCTAGCAC … GTCTTGATTCGCTTGACGCTGCTG
| Oligonucleotide | fitted relative affinity |
| --- | --- |
| CACGGTTTCCTTATCCTGACGTGCTAG | 1.2 z-score |
| GACGAACTGGGTTATCGAGACGTGCTA | 0.037 z-score |
| GACGGTTCCGGACTGGGGACGTGCTAG | 0.049 z-score |
| TTAGGTATCGTTTTCGGTTAGTGCTAG | 6.65 z-score |
| GACGGTTTCCTAATCCTGACGTGCTAG | 0.682 z-score |
| GACGGTTTGGGTATCGGGACGTGCTAG | 1.42 z-score |
| TCAGAGTCCTGTTTGATACTGTGCTAG | -0.378 z-score |
| TTAGATCTCAGTTTCGGTTAGTGCTAG | 9.44 z-score |
| GACGGTAGCCTTATCCTGACGTGCTAG | -0.357 z-score |
| AAGACTTTCTTTCAAATGAAGTGCTAG | 1.1 z-score |
| TTAGGTATCGACACTGGGTTTGTGCTA | 4.93 z-score |
| CTAGTTAAGGTACACCAGCAGTGCTAG | -0.308 z-score |
| TTAGGTTTCCTTCTCGTTTAGTGCTAG | 2.21 z-score |
| GACGGACTTGGTATCGGGACGTGCTAG | 2.6 z-score |
| TTAGATATCAGTATCGACTAGTGCTAG | 2.22 z-score |
| TTAGCACTGCTTATCCTTTAGTGCTAG | -0.0215 z-score |

Block 2
Target: Histone acetyltransferase KAT6A, both winged helices, GST fusion (KAT6A, Homo sapiens, UniProt Q92794, residues 1-181)
Technique: protein binding microarray
Molecule type: double-stranded DNA, one strand shown
Medium: in vitro
Concentration: not given
Notes: 8-mer, flanks averaged, mean of 2 arrays, mostly near background
Relative to: not given
Reading: higher = stronger binding
Target sequence (chain): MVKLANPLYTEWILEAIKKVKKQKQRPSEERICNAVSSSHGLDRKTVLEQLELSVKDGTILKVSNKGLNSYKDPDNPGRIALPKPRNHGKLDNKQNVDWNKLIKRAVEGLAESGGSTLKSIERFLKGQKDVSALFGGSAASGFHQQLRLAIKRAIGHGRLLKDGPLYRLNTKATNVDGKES
| Oligonucleotide | E-score |
| --- | --- |
| ATCGCCTG | -0.11 |
| ATAGTGAT | -0.0166 |
| CAGGTAGA | -0.183 |
| ATCGGCAT | 0.188 |
| ACCAGAAA | -0.152 |
| GTAGCGAC | 0.16 |
| TACTAATA | -0.128 |
| GAGATATA | -0.0701 |
| CTGATACC | -0.0319 |
| ACCGCGTG | 0.245 |
| ACCCCTGC | -0.238 |
| AATCGGAG | -0.084 |
| CATACCCG | 0.212 |
| GTCTACGA | -0.114 |
| ATAACCAG | -0.177 |
| GCTCCAGA | 0.0201 |
| CTACTATC | 0.0181 |

Block 3
Target: RNA binding protein fox-1 homolog 2, RRM domain, GST-SBP tag (RBFOX2, Homo sapiens, UniProt O43251-10, residues 100-194)
Technique: RNA Bind-n-Seq
Molecule type: RNA
Medium: in vitro
Concentration: 365 nM
Notes: natural RNA segment, single round, ends assumed
Relative to: no-protein control
Reading: higher = stronger binding
Shared flanks, not repeated: GGGAGUUCUACAGUCCGACGAUC … UGGAAUUCUCGGGUGCCAA
Residues (chain): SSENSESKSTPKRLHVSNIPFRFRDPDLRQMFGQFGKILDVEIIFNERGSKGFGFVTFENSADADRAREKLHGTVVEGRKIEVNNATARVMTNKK
| Oligonucleotide | RBNS enrichment (R) |
| --- | --- |
| GCCUCCUUUCGCAGCCAGCCUGGGAUAGAGUUACUGACAUUUGAGGGCUGGCCAUCUUUCACCAUGCUGAGGGGAUUUUAACAAUACAAUUCCCGUUUAUAUUUAUAUCU | 0.57 |
| UUGUCGCAUGCUCUUCUUCUGUAUAGUUCUCAUCUUCCAAUUUUAUGGGAUUCAACAAAAGCCUAUUAUGCUUGUUUGCAUUAUGGUUACAAUAUUAAAAAGUGGAUUCA | 4.96 |
| CCUAAGGUAACAUAUGUCUCACAUGUAUUCAGACAUACAGGAUGCUAAUCCACCUUGCAUCCUGCUGUCCAGGUGGACUUCUGUUAGGGACCCAAGGGCCCUUUGGUGUG | 0.357 |
| GGGAAGAGUGGGAAGGCCUGAGUGUGUGCAGCCUCCUCCUCUGCCCACCCAAUCCAGCCAGUUCCCUUCAGGGAGGUUGGUGUGACCUGCUGUAGGUUCACCUUUUAGGC | 0.406 |
| ACUUUCAAAGGGUGUAGGACUCCAUACUCAGUGACAGGGCAGGAAGAGCCAAAGAUAACCACAGCCACAGCCUGUGGAGACCAGGGUUGGAAGCCAGGUGCAGGGCCAGG | 0.502 |
| CUUCCUUACCACGGCCCACGUAAAUGUGACCCUGGACAUCUGUCACACGAAAGCUAAGCUGGUGGCCUUCCCCGCCAGCCCCUCGCAGGAUGGGGGUUUCAAUGUGAAAC | 0.269 |
| AUCCUUCUGAUUGGGUGGGGCGAGCAUCCCAGUGUCCAAAAAUUCCAGCCUAAAUGACAGGUCCUCUGAAAAAGAGGUGCUGAGGAGUAAUGGGGCCAGCUGAUUAAAGA | 0.566 |
| UCCAGCAACCCCUUACUGCUGUAUAACUUGCAUAAGCCUCCCUGGUGACUCUUGCAGGAACCACUCCAUUGCCCUCCAGCUCCCCAGCCUUCUCAGUUAUAAACAUGCUG | 0.553 |
| AGAGCAUUGUUAUUAAGGAUGCAUGACAGGAAUGUUGGCAGAACUGGAAAGUAUUAAAAAAGCAUUAUCAGACAGUCUUGAUAUUAUACAUUUUCAGAAAUAUAUUAAAA | 1.77 |
| AAAUUUGUAACUUUAUAAACAUGUUUUAUGCUUGAGGAAAUUUUUAAGGUGGUAGUAUAAAUGGAAACUUUUUGAAGUAGACCAGAUAUGGGCUACUUGUGACUAGACUU | 1.09 |
| CCUGGAUAGCUCGCUUGGAUGAAUUGAUGGUGUUUAGCAGUUUUUAUAUACUUCCUCCGGGUCUCUAGGAACUCAGACUUUUUUAAACAUAGAUGUAAAUAAGGAACAGU | 0.905 |
| GCAAUCCUGCCGCUAUAGUGAGCUAAUGUCCUGAAUCCAAAGGCUUCAGAAAAUUGCUUUUGCCUUUUUCAUGAAUGUUAAGCAGCAGCAUUGUGAGAUCGAUCUGUCCU | 0.619 |

Block 4
Target: Fragile X messenger ribonucleoprotein 1, C-terminal low-complexity region (Fmr1, Mus musculus, UniProt P35922)
Technique: RNA Bind-n-Seq
Molecule type: RNA
Medium: in vitro
Concentration: 200 nM
Notes: whole 134-nt RNA, ends assumed
With: 150 mM KCl
Relative to: input library
Reading: higher = stronger binding
Shared flanks, not repeated: GGGAGUUCUACAGUCCGACGAUC … UGGAAUUCUCGGGUGUCAAGG
| Oligonucleotide | log2 enrichment |
| --- | --- |
| CUCAAGUCCUGUGCUACACAUCGUAUGUACCGAAUCGGGGUUGGUUGGGUUGGAAAGUAUUAUGUUACGCCGUUCGGAUCUGCACUUCCA | 0.231 |
| AGUCCUGUGCUACACAUCGUAUGUACCGAAUCGGGCCCCCGGGCCCCCGGGCCCCCGGAAAGUAUUAUGUUACGCCGUUCGGAUCUGCAC | -0.858 |
| AAGUCCUGUGCUACACAUCGUAUGUACCGAAUCGGGAAAGGGAGGGUUUUUUUGGGAAAGUAUUAUGUUACGCCGUUCGGAUCUGCACUU | 0.777 |
| UCAAGUCCUGUGCUACACAUCGUAUGUACCGAAUCGGGUGGGUUUUUGGGUGGGAAAGUAUUAUGUUACGCCGUUCGGAUCUGCACUUCC | 0.932 |
| CUGUGCUACACAUCGUAUGUACCGAAUCGGGGAAAAAAGGGAAAAAAGGGGAAAAAAGGGGAAAGUAUUAUGUUACGCCGUUCGGAUCUG | -0.289 |
| CUCAAGUCCUGUGCUACACAUCGUAUGUACCGAAUCGGGGUUGGUUGGGUUGGGAAAGUAUUAUGUUACGCCGUUCGGAUCUGCACUUCC | 0.866 |
| UCCUGUGCUACACAUCGUAUGUACCGAAUCGGGCCCCCCGGGGCCCCCCGGCCCCCCGGGAAAGUAUUAUGUUACGCCGUUCGGAUCUGC | -0.69 |
| UUAAGUUGAAGGAGCGCUACCGCAACGUGCUGGACACCAUGUUCGAGCUGCUGCCCCGGAUGGCCAGGUACUGCCAGCCCCCACCCUGGC | -0.378 |
| UCCUGUGCUACACAUCGUAUGUACCGAAUCGGGGUUUUUGGGGUUUGGGGAAAAAGGGGAAAGUAUUAUGUUACGCCGUUCGGAUCUGCA | 0.635 |
| GCAGGAAGUAAAAACAAAUGGAAAUGCUUCUGAUAGUGGCAGGGGUGGGGGUUGCUAAGGAAAGGGUGGGAUGGGAGUGGGUAAAGAGUU | 0.525 |

Some of these lines once more (block 1):
| Oligonucleotide | fitted relative affinity |
| --- | --- |
| GACGAACTGGGTTATCGAGACGTGCTA | 0.037 z-score |
| TTAGGTTTCCTTCTCGTTTAGTGCTAG | 2.21 z-score |
| CTAGTTAAGGTACACCAGCAGTGCTAG | -0.308 z-score |
| GACGGTTCCGGACTGGGGACGTGCTAG | 0.049 z-score |
| TCAGAGTCCTGTTTGATACTGTGCTAG | -0.378 z-score |
| TTAGCACTGCTTATCCTTTAGTGCTAG | -0.0215 z-score |
